Published values from different studies.
Protocols differ between the studies behind these lines. Values joined by “and” are separate records of one study, mostly repeats; a detail may differ.

SMILES = CC(C)(C)c1cc(-c2ccc3cc4ccccc4nc3n2)nc(-c2ccc3cc4ccccc4nc3n2)c1.[Cl-].[Cl-].[Ru+2].c1ccc2cc3nc4c5cccnc5c5ncccc5c4nc3cc2c1; cell line = B16-F10; assay = cytotoxicity, resazurin; conditions = dark; endpoint = EC50; value = 50.7 µM
SMILES = O=C1c2c(O)cc(O)cc2-c2c(-c3ccc(O)cc3)oc3cc(O)cc1c23; cell line = LCC2 shControl cells; assay = label-free MS proteomics, refers to: L1CAM; conditions = 10 µM; how to read = baseline: DMSO; endpoint = protein level ratio; value = 7.76
SMILES = Cc1c(Cl)c(=O)oc2cc(OCCCCCCSC#N)ccc12; cell line = T47D; assay = cell growth or viability, SRB; endpoint = GI50; value = 9.8 µM
SMILES = Cc1c(Cl)cccc1Nc1ccccc1C(=O)[Se]CC(=O)Nc1cccc(C(F)(F)F)c1; cell line = NCI60 breast subpanel; assay = cell growth; conditions = 10 µM, 48 h, one-dose; endpoint = mean growth percent; value = -65.6%
SMILES = COc1ccc(NC(=O)c2ccc3[nH]c(-c4ccc(N(C)C)cc4)nc3c2)cn1; cell line = HCT116; assay = IncuCyte; conditions = concentration not given, 4 h; endpoint = dead cell to confluence ratio; value = 4.54 and 1.42 and 5.1
SMILES = C=CC(=O)N1CC2C(=O)N(CCN(C)C)c3c(c4cc(Cl)c(-c5c(O)cccc5F)nc4n(-c4c(C)ccnc4C(C)C)c3=O)N2CC1C (centres unmarked); cell line = NCI-H358; assay = Western blot; conditions = 1 nM, 4 h; endpoint = p-ERK/ERK ratio; value = decreased
SMILES = [BH3-][P+]1(c2ccccc2)CCCCC1; cell line = HCT-116; assay = annexin V/PI flow cytometry; conditions = IC50, 72 h; endpoint = early apoptotic cells; value = 6.15%
SMILES = CSCC[C@@H](N)C(=O)N[C@@H](CCSC)C(=O)N[C@@H](CCCNC(=N)N)C(=O)N[C@@H](Cc1c[nH]c2ccccc12)C(=O)N[C@@H](CO)C(=O)N[C@@H](CCCNC(=N)N)C(=O)N[C@@H](CCCCN)C(=O)N[C@@H](CCSC)C(=O)N1CCC[C@H]1C(=O)N[C@@H](CS)C(=O)N[C@H](C(=O)N[C@@H](CO)C(=O)O)C(C)C; cell line = SUP-T1; assay = CXCL12-induced Erk phosphorylation, phospho flow cytometry; conditions = concentration not given, added: CXCL12; endpoint = inhibition; value = no inhibition
SMILES = CN(C)CCN1CCN(c2ccc3nc(-c4ccc5nc(-c6ccc(C(F)(F)F)cc6)[nH]c5c4)[nH]c3c2)CC1; cell line = OVCAR-4; assay = SRB; conditions = 10 µM, 48 h; endpoint = growth percent; value = -4.77%
SMILES = COC1=C2CC(C)CC(OC)C(O)C(C)C=C(C)C(OC(N)=O)C(OC)C=CC=C(C)C(=O)NC(=CC1=O)C2=O (centres unmarked); cell line = Rh30; assay = ChIP-seq, refers to: H3K36me3 peak; conditions = concentration not given, promoter-TSS chr11:10816400-10831599; how to read = baseline: untreated control; endpoint = log fold change; value = -0.596
SMILES = O=C(C[Se]C(=O)c1cc2ccccc2[nH]1)Nc1cccc(C(F)(F)F)c1; cell line = OVCAR-4; assay = cell growth or viability, SRB; endpoint = GI50; value = 0.7 µM
SMILES = CN1CCCNC(=O)c2cccc(c2)C(=O)NCCCN(C)CCCNc2cccc3c2C(=O)c2cccc(c2C3=O)NCCC1; cell line = SAS; assay = RNA-seq, refers to: MT-ND4 mRNA; conditions = 1 µM, 6 h; how to read = baseline: untreated cells; endpoint = log2 fold change; value = -2.01
SMILES = Cc1ncsc1-c1ccc(C(C)NC(=O)C2CC(O)CN2C(=O)C(NC(=O)CCCCCCCCCCN2CCCC(Nc3ncc(Cl)c(Nc4ccccc4S(=O)(=O)C(C)C)n3)C2)C(C)(C)C)cc1 (centres unmarked); cell line = 22Rv1; assay = RNA-seq, refers to: ZNF616 mRNA; conditions = concentration not given; how to read = baseline: DMSO; endpoint = log2 fold change; value = -2.1
SMILES = CNS(=O)(=O)Nc1nccc(Cc2c(C)c3ccc(Oc4ncccc4F)cc3oc2=O)c1F; cell line = SK-NEP-1; assay = cell viability; conditions = 7 days; endpoint = IC50; value = > 1 µM
SMILES = NC(=O)c1ccc(-c2ccccc2Cl)c2c3c([nH]c12)CC[C@@H](N)C3; cell line = MX1; assay = cell growth or viability; endpoint = IC50; value = 0.0156 µM
SMILES = CSC(=S)N/N=C(\C)c1ccc(Nc2nnc(-c3ccc(Cl)cc3)c3ccccc23)cc1; cell line = HepG2; assay = cell growth or viability, MTT; conditions = 5 µM, 24 h; endpoint = viability; value = 7.89%
SMILES = Cn1ncc2cc(-c3cncc(Cl)c3N3CCC4(CCNC4=O)CC3)ccc21; cell line = LS174T; assay = gene expression, microarray, refers to: CXCL8 mRNA; conditions = concentration not given, 4 h; how to read = baseline: untreated cells; endpoint = log2 fold change; value = -4.69
SMILES = Cc1nc(Nc2ncc(C(=O)Nc3c(C)cccc3Cl)s2)cc(N2CCN(C(=O)CN)CC2)n1; cell line = KU812; assay = flow cytometry; conditions = concentration not given, 6 h; endpoint = late apoptotic cells; value = 10.3% and 8.56% and 9.96%
SMILES = C[C@@H]1Cc2c([nH]c3ccccc23)[C@@H](c2c(F)cc(/C=C/C(=O)O)cc2F)N1C12CC(C1)C2; cell line = MCF7; assay = RNA-seq, refers to: RERG mRNA; conditions = 1 µM, 24 h, E2-induced gene; how to read = baseline: DMSO vehicle; endpoint = log2 fold change; value = -1.45
SMILES = C=CC(=O)N1CCCC(n2c(=O)c3ncccc3n(Cc3ccc(Oc4ccccc4)cc3)c2=O)C1 (centres unmarked); cell line = MAC-1; assay = cell proliferation, MTT; conditions = 72 h; endpoint = IC50; value = 0.15 µM
SMILES = CCOc1cncc(-c2ccc(NC(=O)C3(c4ccnc(NS(=O)(=O)C5CC5)n4)CCOCC3)nc2)n1; cell line = OVCAR-4; assay = cell proliferation, CellTiter-Glo; conditions = 72 h; endpoint = IC50; value = 5.83 µM
SMILES = CO[C@@H]1[C@@H](OC(N)=O)[C@@H](O)[C@H](Oc2ccc3c(O)c(NC(=O)c4ccc(O)c(CC=C(C)C)c4)c(=O)oc3c2C)OC1(C)C; cell line = DLD-1 BRCA2-/-; conditions = 50 µM, replicate 2; endpoint = colony count; value = 13
SMILES = CC(C)c1ccc(N(C)c2ccc3c(c2)OCC[C@H]3CNc2cnccc2C(=O)O)cc1; cell line = SW48; assay = cell growth or viability, ATP luminescence; conditions = 7 days; endpoint = IC50; value = 0.05 µM
SMILES = CCN(C(=O)c1cc(F)ccc1Oc1nncnc1N1CCC2(C1)CN([C@H](CCCN(C)CCOC)C(C)C)C2)C(C)C; cell line = MHH-ES-1; assay = cell growth or viability; conditions = 72 h; endpoint = GI50; value = > 10 µM
SMILES = CC(C)(C)c1cc(-c2ccc3cccnc3n2)nc(-c2ccc3cccnc3n2)c1.[Cl-].[Cl-].[Ru+2].c1cnc2c(c1)ccc1cccnc12; cell line = B16-F10; assay = resazurin; conditions = added: light 523 nm, 100 J/cm2; how to read = baseline: dark EC50 over light EC50; endpoint = phototoxicity index; value = 1
SMILES = COc1ccc(NC(=O)c2c(Nc3ccccc3)sc(C(=O)N/N=C/c3ccc(OC)c(OC)c3)c2NC(C)=O)cc1; cell line = HCT-116; assay = cell growth or viability, SRB; conditions = 10 µM, 48 h; endpoint = viability; value = 39.4%
SMILES = [Cl-].[Cl-].[Ru+2].c1cc(-c2ccc3cccnc3n2)nc(-c2ccc3cccnc3n2)c1.c1ccc2cc3nc4c5cccnc5c5ncccc5c4nc3cc2c1; cell line = B16-F10; assay = cytotoxicity, resazurin; conditions = dark; endpoint = EC50; value = 65 µM
SMILES = CCN(CC)CC(=O)Nc1cccc(-n2cc(-c3ccc4ccc(-c5cn(-c6cccc(NC(=O)CN(CC)CC)c6)nn5)cc4c3)nn2)c1; cell line = RCC4; assay = PCR angiogenesis array, refers to: IFNA1; conditions = 5 x IC50, 2 h, normoxia; how to read = baseline: untreated; endpoint = fold regulation; value = -2.25
SMILES = CCCCCCCCCCCC(=O)N[C@H](CO)C[C@@H](O)c1ccccc1; cell line = HeLa; assay = CERT activity, HPLC-MS/MS lipidomics, refers to: sphingomyelin 16; conditions = 1 µM, 24 h, not cell-number normalised; endpoint = sphingomyelin level; value = 811000 pmol/sample and 725000 pmol/sample and 816000 pmol/sample

Some of these lines once more:
SMILES = CNS(=O)(=O)Nc1nccc(Cc2c(C)c3ccc(Oc4ncccc4F)cc3oc2=O)c1F; cell line = SK-NEP-1; assay = cell viability; conditions = 7 days; endpoint = IC50; value = > 1 µM
SMILES = COc1ccc(NC(=O)c2ccc3[nH]c(-c4ccc(N(C)C)cc4)nc3c2)cn1; cell line = HCT116; assay = IncuCyte; conditions = concentration not given, 4 h; endpoint = dead cell to confluence ratio; value = 4.54 and 1.42 and 5.1
SMILES = CCCCCCCCCCCC(=O)N[C@H](CO)C[C@@H](O)c1ccccc1; cell line = HeLa; assay = CERT activity, HPLC-MS/MS lipidomics, refers to: sphingomyelin 16; conditions = 1 µM, 24 h, not cell-number normalised; endpoint = sphingomyelin level; value = 811000 pmol/sample and 725000 pmol/sample and 816000 pmol/sample
SMILES = Cc1ncsc1-c1ccc(C(C)NC(=O)C2CC(O)CN2C(=O)C(NC(=O)CCCCCCCCCCN2CCCC(Nc3ncc(Cl)c(Nc4ccccc4S(=O)(=O)C(C)C)n3)C2)C(C)(C)C)cc1 (centres unmarked); cell line = 22Rv1; assay = RNA-seq, refers to: ZNF616 mRNA; conditions = concentration not given; how to read = baseline: DMSO; endpoint = log2 fold change; value = -2.1
